Results of several laboratories.
A part holds a random share of what one study measured. Positions count from the first letter of the parent shown.

Study 1
Target: Interferon regulatory factor 3, full length, phosphomimetic (IRF3, Homo sapiens, UniProt Q14653, residues 1-427, S386D/S396D/S398D/S402D/T404D/S405D)
Chain of UniProt Q14653 (whole entry, unmodified, looked up): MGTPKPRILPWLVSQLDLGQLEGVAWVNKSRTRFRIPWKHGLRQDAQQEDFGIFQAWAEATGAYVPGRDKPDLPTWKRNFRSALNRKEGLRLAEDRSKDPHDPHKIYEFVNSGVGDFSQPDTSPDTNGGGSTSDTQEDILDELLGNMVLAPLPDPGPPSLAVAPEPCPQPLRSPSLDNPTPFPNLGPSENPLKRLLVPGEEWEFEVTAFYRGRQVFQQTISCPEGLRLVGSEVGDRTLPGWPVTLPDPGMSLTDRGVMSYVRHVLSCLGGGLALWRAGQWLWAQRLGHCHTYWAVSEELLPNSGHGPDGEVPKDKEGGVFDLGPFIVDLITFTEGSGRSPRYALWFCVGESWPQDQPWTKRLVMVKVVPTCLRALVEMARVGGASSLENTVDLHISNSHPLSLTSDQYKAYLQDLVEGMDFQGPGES
Technique: protein-binding microarray
Molecule type: double-stranded DNA, one strand shown
Medium: in vitro
Tested at: 2540 nM top
Setting: 60-bp whole probe
Added: salmon DNA 0.4 mg/ml
Reference: random background probes
Direction: higher = stronger binding
Endpoint: fitted relative affinity
All sequences stand within: GCCTAGCAC … GTCTTGATTCGCTTGACGCTGCTG
TTAGGTTTCGGTATAGGTTAGTGCTAG: 7.46 z-score
AGAGCCTGGGGATGCAGAGAGTGCTAG: -1.24 z-score
TCACCCCTCTCATTCCAACTGTGCTAG: 1.29 z-score
GACGGTATCGACACTGGGGCCGTGCTA: 0.378 z-score
GACGGTATCGACTATCGGGCCGTGCTA: 0.3 z-score
TTGGATATCGGGTTTCGATTAGTGCTA: 1.61 z-score
CTTTCTATCTCTGTTTTTGCGTGCTAG: 5.42 z-score
GACGATACCAGTATCGAGACGTGCTAG: 0.645 z-score
TTAAATATCAGTCTCGATTAGTGCTAG: 1.59 z-score
GACGGACTTGGTTTCGGGACGTGCTAG: 2.04 z-score
ATTTTTATCAAATGTGGGATTGTGCTA: 0.757 z-score
GACGGTATCGGTATCGGGGCGTGCTAG: 4.38 z-score
ATATCTAAAAAGTCTCTGGGAGTGCTA: 0.325 z-score
GACGATATCGGGTATCGAGAAGTGCTA: 0.138 z-score
GACGGCTTCCTTTCCCTGACGTGCTAG: 1.71 z-score
GACGATCTCTGTTTCGAGACGTGCTAG: 2.03 z-score
GACGGTCTCGACACTGGGGACGTGCTA: -0.11 z-score
GACGATATCGGGTTTCGGGACGTGCTA: 1.72 z-score
TTAGGATTGCTTATCCTTTAGTGCTAG: 0.458 z-score
GACGGTTTCGATCTCGGGACGTGCTAG: 7.67 z-score
ATATATATCATTTAATTATAGTGCTAG: 0.939 z-score
TTAGGTCTCGCTATCGGTTAGTGCTAG: 0.471 z-score
TCACCTCTCTCTATTCAACTGTGCTAG: 1.2 z-score

Study 2
Target: ABI1, truncated, D143A, DHFR fusion (Arabidopsis thaliana)
Technique: DHFR PCA, deep sequencing
Medium: yeast
Setting: methotrexate growth selection, single substitutions
Added: (+)-ABA 710 µM
Reference: wild-type fitted maximum
Direction: higher = stronger binding
Endpoint: relative binding score
Parent: PYL1, truncated, DHFR fusion (Arabidopsis thaliana); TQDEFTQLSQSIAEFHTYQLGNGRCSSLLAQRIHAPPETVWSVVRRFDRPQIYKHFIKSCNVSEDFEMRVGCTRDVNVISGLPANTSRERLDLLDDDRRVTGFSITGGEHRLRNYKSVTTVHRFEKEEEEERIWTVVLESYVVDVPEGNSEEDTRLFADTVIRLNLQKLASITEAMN; partner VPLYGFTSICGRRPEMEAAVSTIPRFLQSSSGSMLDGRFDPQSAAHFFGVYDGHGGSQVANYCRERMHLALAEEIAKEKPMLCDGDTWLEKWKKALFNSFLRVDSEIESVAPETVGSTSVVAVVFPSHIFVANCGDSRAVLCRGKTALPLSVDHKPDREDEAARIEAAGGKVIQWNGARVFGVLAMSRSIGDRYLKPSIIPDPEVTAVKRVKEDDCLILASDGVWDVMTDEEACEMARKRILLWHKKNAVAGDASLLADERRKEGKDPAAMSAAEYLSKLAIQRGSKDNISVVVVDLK
L29P: 15.8%
V161P: -4.23%
H110N: 97.8%
R45A: 81.8%
E174V: 93.5%
R98N: 115%
N61F: 105%
S11C: 106%
A84Q: 28.7%
F47H: -21%
T154F: 18.2%
Y53E: -10.1%
Y141H: 21.2%

Study 3
Target: RING finger protein unkempt homolog, zinc fingers 1-6, GST-SBP tag (UNK, Homo sapiens, UniProt Q9C0B0, residues 30-357)
Chain of UniProt Q9C0B0 (30-357, looked up): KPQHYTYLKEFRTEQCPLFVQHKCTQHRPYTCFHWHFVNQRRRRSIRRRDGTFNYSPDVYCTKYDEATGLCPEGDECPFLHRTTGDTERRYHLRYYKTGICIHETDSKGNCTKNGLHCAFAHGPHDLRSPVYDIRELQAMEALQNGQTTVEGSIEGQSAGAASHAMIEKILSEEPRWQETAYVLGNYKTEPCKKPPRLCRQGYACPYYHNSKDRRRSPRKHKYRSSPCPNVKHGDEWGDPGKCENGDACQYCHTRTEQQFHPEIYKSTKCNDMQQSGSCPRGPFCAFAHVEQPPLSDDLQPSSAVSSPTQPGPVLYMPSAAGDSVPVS
Technique: RNA Bind-n-Seq
Molecule type: RNA
Medium: in vitro
Tested at: not given
Setting: RNA with constant flanks, human and mouse sites, ends assumed
Reference: input RNA pool
Direction: higher = stronger binding
Endpoint: bound/input enrichment
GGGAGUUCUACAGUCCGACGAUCUUCAAAGAGAAAACCCAGCAGUGGAAGUUGCUUGGCCAAUCCCAAGAUAAUGAAAAGGAAUUAGCUGCCCUCUUCCAGCUAUGGCUAGAGACCAAAGAUCAGGCCUUCUGUAAGCAAGAACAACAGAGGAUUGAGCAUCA: 0.154 ratio
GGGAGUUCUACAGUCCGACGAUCACCACCUACAUCAAUGCCUCAACCUGUACAGUCAGCUUUCAACCGACCAACCCUCCAAUCAUAUUUGACCUUCCAAACCCACAGGGCUCCUAAAGCACUCAGCAUCCCGUUGGAAUGUGACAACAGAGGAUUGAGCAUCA: 0.426 ratio
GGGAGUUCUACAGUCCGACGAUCGGGCGACCCAGAACAGCCCUCGCCGUGGGGACGGGAGCGCACCCGGGGCCCAUUGCCUUGUGCUGGCUCGCUGUCCCUUGGAGCCGAAACCGAAAGGAGCCCGGCGUCGGUCCGGAGCCGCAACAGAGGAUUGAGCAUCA: 0.0728 ratio
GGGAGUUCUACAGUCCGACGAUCUUUGACAAGGAUGGCAAUGGUUAUAUCAGUGCAGCAGAACUACGUCACGUCAUGACAAACUUAGGAGAAAAACUAACAGAUGAAGAAGUAGAUGAAAUGAUCAGAGAAGCAGAUAUUGAUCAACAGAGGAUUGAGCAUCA: 2.42 ratio
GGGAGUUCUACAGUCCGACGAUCUUAAUGUUCUUAAUAAAGUGUUCUUGGAGUUGAACCUAGCAGCGGAUGGCUUUCUUUAGCUUAGCCCAGUUUCCAGGGAAGCGUUGUUUCUCCAGGCUGUAAAAUGGCAGACUCUCCUGGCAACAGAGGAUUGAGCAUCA: 0.4 ratio
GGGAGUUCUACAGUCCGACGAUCUAGAAUCUUGUUUUUAGAUUGAAUUUGAAUCUAUAUUUAUUGUCUUUUUGUAUCUUGGAAAUUAGAGAUUUGUUAUAGAUUUACCUGUAUUUGUCAAGAUCAUAGCUGGUUUUAAAAAUGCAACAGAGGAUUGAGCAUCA: 2.03 ratio
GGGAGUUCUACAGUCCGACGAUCGAUUCUUACAUCAAAGCAGAUGAUCCUUCAUCUUACAUGGAAGUUGUCCAGGCUGCCAAUGCCAGCGGAAACUGGGAAGAAUUGGUGAAGUAUUUGCAGAUGGCACGCAAGAAGGCUCGACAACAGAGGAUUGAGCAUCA: 0.137 ratio

Study 4
Target: RNA binding protein fox-1 homolog 2, RRM domain, GST-SBP tag (RBFOX2, Homo sapiens, UniProt O43251-10, residues 100-194)
Technique: RNA Bind-n-Seq
Molecule type: RNA
Medium: in vitro
Tested at: 365 nM
Setting: natural RNA segment, single round, ends assumed
Reference: no-protein control
Direction: higher = stronger binding
Endpoint: RBNS enrichment (R)
Target sequence (chain): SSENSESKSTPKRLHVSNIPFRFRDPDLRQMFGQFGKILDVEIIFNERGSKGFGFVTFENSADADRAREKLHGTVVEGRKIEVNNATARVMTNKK
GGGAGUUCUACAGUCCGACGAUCAGAUAGGGUCCCCCAGGCAGUCCCCAGUGGCGGGACACAGGGGUCCGGCUGUGGAGCUCCCCUGCCAGCCCCUGGAGCUCCAGGAGGGCCUGUUGGUCCCCUGUUCAGAAUGGAAUUCUCGGGUGCCAA: 0.384
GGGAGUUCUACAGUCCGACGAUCCCAGCCCUGGCCCGGCUGCCACACCUCUGUUUCCUAGGCUGGGGACCCAGCUUGUCUCUCCUUGUUUCUUCCCACUGCACUGUGGUGCUUCAGUGGCCACCAGCCUCGUCUGGAAUUCUCGGGUGCCAA: 0.5
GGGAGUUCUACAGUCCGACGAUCGAGACACUUCAGAAACUUUGCUCAGAAAACAGAUGCUACAGUUUGUGCAGGCAUGCGGUAGGAAAGGUAGAUCACCUCUGGCUACUCCUGAGGCCCUGCUGAGCCAGCAAUGGAAUUCUCGGGUGCCAA: 0.6
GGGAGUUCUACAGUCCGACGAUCUAAUGCCAGCUUUAGGACAGAAAGAAUUAUAAGAAAACCAGCAUAAUACCUGAUAUAUUAAAAUGUAGUGCCUGUGAAAUCUGUAUUAUAUUGCUCUUCUGAAGUAAGAUUGGAAUUCUCGGGUGCCAA: 2.23
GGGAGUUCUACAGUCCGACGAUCGCCUUUGCUUCAAAUGGUUUGAGUCACCAACAGACUUGUUUGGGAGUGGCCUCAGUAAAUGACAGAAAAACUGACAGGCUCAGUUUUGGAAGACAGCAAACUGGUAAGGUUGGAAUUCUCGGGUGCCAA: 0.415
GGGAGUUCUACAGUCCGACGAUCAGUAUAACCAGCUGAAGUUGCAGAUGUUAGAUAUUUUUCAUAAACAAGUUCGAGUCAAAGUUGAAAAUUCAUAGUAAGAUUGAUAUCUAUAAAAUAGAUAUAAAUUUUUAUGGAAUUCUCGGGUGCCAA: 0.622
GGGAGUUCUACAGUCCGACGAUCUUUCAACACAGUGUGCUCUCUAGUUAUCAUGUGUAACGUGGGUUCUGUUUAGCGAAGAUAGACUAGAGGACACGUUAGAGAUGCCCUUCCCUGCUCCAUCCCUGUGGCACUGGAAUUCUCGGGUGCCAA: 0.376
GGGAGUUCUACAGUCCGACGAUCCCACUGGCCUACAGUCUUGCUUCUGCAGCACCCACUUUGUCUCCUCAGGUAGUGAUGAAUUAGUUGCUGUCACAAAAGGAGGGAAGUAGCACCCAAAUUAAGUUGCUUAAUGGAAUUCUCGGGUGCCAA: 0.344
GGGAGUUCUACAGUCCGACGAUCACUACUAUUCUUAGUUUGUAAAUUGUCCUUUUGAUACCAUCUUGUUUUCUUUUGUAGGUAUAAAUAAAUACUUGACAAUAAAGGUGUGAAUUUUUUAUUACAUUAAAACUUGGAAUUCUCGGGUGCCAA: 0.458
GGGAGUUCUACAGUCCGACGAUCAAAAUUCCUUAAACAAAGCAUUCCUACAGCGUUUUGCUGGGUGAGAGGAAUCAAACUGGUUCCCUUUCUUUCUGGGAACCCCUGCCAUGUUACUCUAAAGACCCCAGCAAUGGAAUUCUCGGGUGCCAA: 0.28
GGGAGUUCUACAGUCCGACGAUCUAGCGUACACAAGAUUCCAUGACUCCAGAGCAUCUUGAAGAAACAUACAUAUUUUGAAAGAGGGGAAAUGUAGCAGAUAGUUCACAAGCUGCGGGUUGUAGCUAAAUAUUUGGAAUUCUCGGGUGCCAA: 0.976
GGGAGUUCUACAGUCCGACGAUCUGAUUCUGGAAGGAGAAGUUGGUAUGUCUAGCUUCAUUGCGGCCCCUCGGGCUACCCAGCAAGAGGAUUCUGCAUCAAGGAACUGGACGAGCCGCUACCCAAACUGCCACUGGAAUUCUCGGGUGCCAA: 0.25

Excerpt of the above (study 1):
GACGGTTTCGATCTCGGGACGTGCTAG: 7.67 z-score
ATATATATCATTTAATTATAGTGCTAG: 0.939 z-score
TTAGGTCTCGCTATCGGTTAGTGCTAG: 0.471 z-score
